Assay results gathered from unrelated publications.
Lines come from different studies, so protocols differ. Numbers after ± are the reported error.

| SMILES | cell line | effect on | technique | time | setting | added | GI50 |
| --- | --- | --- | --- | --- | --- | --- | --- |
| CCN1CCN(Cc2ccc(C(=O)Nc3ccc(C)c(NCc4cnc5[nH]ccc5c4OC)c3)cc2C(F)(F)F)CC1 | U2OS overexpressing wild-type DDR1 | cell growth |  |  |  |  | 1100 nM |
| O=C(Nc1ccc(Sc2ccc3c(/C=C/c4ccccn4)n[nH]c3c2)cc1)C1CCCN1 (stereo not drawn) | Ba/F3 TEL-VEGFR3 | cell growth | CCK-8 |  |  |  | 2190 nM |
| CCc1cc(N2C(=S)N(c3ccc(C#N)c(C(F)(F)F)c3)C(=O)C2(C)C)ccc1OCCN1CCN(CC(=O)Nc2cccc(NC3CCC(=O)NC3=O)c2)[C@H](C)C1 (stereo partly drawn) | LNCaP CRBN knockout | androgen-stimulated proliferation | CellTiter-Glo | 168 h |  |  | 583 ± 203 nM |
| Cc1cc(C)c(CNC(=O)c2c(C)n(C(C)C3CCC(NC4(C)COC4)CC3)c3ccccc23)c(=O)[nH]1 (stereo not drawn) | KARPAS-422 | cell growth or viability |  | 8 days |  |  | 150 nM |
| Cc1cccc(NC(=O)CC(=O)Nc2ccc3[nH]nc(/C=C/c4ccccn4)c3c2)c1 | Ba/F3 TEL-VEGFR3 | cell growth | CCK-8 |  |  |  | 2000 nM |
| Cc1cc(=O)oc2cc(OCCCCCCSC#N)ccc12 | SW1573 | cell growth or viability | SRB |  |  |  | 2800 nM |
| O=C(CNC(=O)c1ccc(Cl)c(C(F)(F)F)c1)Nc1ccc2[nH]nc(/C=C/c3ccccn3)c2c1 | Ba/F3 TEL-VEGFR2 | cell growth | CCK-8 |  |  |  | 750 nM |
| CCN(C(=O)c1cc(F)ccc1Oc1nncnc1N1CCC2(C1)CN([C@H](CCCN(C)CCOC)C(C)C)C2)C(C)C | SK-MEL-5 | cell growth or viability |  | 72 h |  |  | > 10000 nM |
| NCC(=O)Nc1ccc(Sc2ccc3c(/C=C/c4ccccn4)n[nH]c3c2)cc1 | Ba/F3 TEL-VEGFR3 | cell growth | CCK-8 |  |  |  | 2890 nM |
| CSc1cc(C)[nH]c(=O)c1CN1CCc2c(Cl)c3c(c(C)c2C1=O)OC(C)(C1CCC(N(C)C)CC1)O3 (stereo not drawn) | KARPAS-422 | cell growth or viability |  | 8 days |  |  | 4.8 nM |
| N#CSCCCCCCOc1ccc2c(-c3ccccc3)cc(=O)oc2c1 | SW1573 | cell growth or viability | SRB |  |  |  | 75000 nM |
| [Cl-].[Cl-].[Ru+2].c1ccc(-c2ccccn2)nc1.c1ccc(-c2ccccn2)nc1.c1ccc2cc3nc4c5cccnc5c5ncccc5c4nc3cc2c1 | SK-MEL-28 |  | sulforhodamine B |  | normoxia | green light 523 nm | 278 nM |

Repeated from above:
| SMILES | cell line | effect on | technique | time | setting | added | GI50 |
| --- | --- | --- | --- | --- | --- | --- | --- |
| NCC(=O)Nc1ccc(Sc2ccc3c(/C=C/c4ccccn4)n[nH]c3c2)cc1 | Ba/F3 TEL-VEGFR3 | cell growth | CCK-8 |  |  |  | 2890 nM |
| CSc1cc(C)[nH]c(=O)c1CN1CCc2c(Cl)c3c(c(C)c2C1=O)OC(C)(C1CCC(N(C)C)CC1)O3 (stereo not drawn) | KARPAS-422 | cell growth or viability |  | 8 days |  |  | 4.8 nM |
